Measurements gathered from unrelated publications.
A part holds a random share of what one study measured. Values joined by “and” are separate records of one study, mostly repeats; a detail may differ.
Sequence of UniProt P10721 (whole entry, unmodified, looked up): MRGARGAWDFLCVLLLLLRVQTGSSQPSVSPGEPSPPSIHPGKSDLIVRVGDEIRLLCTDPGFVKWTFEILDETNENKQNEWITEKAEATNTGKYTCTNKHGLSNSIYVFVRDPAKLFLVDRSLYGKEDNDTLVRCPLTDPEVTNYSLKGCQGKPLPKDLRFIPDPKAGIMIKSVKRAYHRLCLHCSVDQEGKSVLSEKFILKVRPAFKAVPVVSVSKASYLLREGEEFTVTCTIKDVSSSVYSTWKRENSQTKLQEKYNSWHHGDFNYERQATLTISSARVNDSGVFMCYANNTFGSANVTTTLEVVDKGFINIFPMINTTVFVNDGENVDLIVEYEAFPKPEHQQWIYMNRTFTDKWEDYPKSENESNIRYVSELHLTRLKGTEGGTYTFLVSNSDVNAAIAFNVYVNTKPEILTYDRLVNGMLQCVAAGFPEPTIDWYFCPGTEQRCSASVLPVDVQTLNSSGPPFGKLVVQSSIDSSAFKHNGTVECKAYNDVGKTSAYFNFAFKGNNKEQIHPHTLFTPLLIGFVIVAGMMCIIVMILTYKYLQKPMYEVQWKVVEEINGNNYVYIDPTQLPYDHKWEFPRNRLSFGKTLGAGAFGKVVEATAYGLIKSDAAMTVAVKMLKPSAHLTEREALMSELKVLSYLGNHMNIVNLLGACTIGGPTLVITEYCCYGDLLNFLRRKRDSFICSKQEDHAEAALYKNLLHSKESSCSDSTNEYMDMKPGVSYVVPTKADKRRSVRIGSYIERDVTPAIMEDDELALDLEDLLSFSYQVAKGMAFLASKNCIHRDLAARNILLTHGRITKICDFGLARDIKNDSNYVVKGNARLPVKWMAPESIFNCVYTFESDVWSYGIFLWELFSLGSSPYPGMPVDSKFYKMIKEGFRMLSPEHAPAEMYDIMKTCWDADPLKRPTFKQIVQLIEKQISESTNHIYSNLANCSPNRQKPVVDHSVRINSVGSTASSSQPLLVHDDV
Sequence of UniProt Q9UKE5 (whole entry, looked up): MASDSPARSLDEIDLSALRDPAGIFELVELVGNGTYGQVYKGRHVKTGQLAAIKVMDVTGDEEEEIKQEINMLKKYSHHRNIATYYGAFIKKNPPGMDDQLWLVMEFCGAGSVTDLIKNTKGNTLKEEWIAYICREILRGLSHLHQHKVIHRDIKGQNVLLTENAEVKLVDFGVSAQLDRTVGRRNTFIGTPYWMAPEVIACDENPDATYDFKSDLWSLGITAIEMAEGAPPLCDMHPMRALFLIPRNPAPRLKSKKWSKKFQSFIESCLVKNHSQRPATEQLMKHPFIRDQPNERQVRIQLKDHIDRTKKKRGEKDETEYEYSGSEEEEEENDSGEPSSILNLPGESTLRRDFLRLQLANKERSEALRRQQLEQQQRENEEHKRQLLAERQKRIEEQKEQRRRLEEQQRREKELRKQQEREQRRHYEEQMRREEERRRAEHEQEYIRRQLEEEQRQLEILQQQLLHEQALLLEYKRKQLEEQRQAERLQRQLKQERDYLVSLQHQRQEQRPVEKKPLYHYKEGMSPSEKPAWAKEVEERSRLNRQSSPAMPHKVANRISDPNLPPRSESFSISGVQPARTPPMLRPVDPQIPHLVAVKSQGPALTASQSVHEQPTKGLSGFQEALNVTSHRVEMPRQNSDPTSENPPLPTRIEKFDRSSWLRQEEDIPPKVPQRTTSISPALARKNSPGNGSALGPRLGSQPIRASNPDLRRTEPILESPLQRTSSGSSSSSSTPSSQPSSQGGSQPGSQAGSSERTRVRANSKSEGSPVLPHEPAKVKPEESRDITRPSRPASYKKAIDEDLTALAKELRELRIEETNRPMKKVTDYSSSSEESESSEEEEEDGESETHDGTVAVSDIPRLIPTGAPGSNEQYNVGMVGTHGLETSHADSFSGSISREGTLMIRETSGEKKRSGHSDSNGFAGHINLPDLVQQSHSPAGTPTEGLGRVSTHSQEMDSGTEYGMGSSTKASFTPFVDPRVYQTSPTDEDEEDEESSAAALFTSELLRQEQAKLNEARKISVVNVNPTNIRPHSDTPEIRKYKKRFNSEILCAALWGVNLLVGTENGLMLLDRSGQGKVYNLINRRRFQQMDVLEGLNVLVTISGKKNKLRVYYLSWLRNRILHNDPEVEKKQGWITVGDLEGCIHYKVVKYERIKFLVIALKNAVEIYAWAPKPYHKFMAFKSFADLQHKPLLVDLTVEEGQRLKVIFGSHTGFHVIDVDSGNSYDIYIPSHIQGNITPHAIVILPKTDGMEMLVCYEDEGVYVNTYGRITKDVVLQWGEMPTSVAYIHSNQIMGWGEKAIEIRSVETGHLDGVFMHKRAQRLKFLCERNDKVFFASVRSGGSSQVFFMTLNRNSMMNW
Sequence of UniProt P54756 (whole entry, looked up): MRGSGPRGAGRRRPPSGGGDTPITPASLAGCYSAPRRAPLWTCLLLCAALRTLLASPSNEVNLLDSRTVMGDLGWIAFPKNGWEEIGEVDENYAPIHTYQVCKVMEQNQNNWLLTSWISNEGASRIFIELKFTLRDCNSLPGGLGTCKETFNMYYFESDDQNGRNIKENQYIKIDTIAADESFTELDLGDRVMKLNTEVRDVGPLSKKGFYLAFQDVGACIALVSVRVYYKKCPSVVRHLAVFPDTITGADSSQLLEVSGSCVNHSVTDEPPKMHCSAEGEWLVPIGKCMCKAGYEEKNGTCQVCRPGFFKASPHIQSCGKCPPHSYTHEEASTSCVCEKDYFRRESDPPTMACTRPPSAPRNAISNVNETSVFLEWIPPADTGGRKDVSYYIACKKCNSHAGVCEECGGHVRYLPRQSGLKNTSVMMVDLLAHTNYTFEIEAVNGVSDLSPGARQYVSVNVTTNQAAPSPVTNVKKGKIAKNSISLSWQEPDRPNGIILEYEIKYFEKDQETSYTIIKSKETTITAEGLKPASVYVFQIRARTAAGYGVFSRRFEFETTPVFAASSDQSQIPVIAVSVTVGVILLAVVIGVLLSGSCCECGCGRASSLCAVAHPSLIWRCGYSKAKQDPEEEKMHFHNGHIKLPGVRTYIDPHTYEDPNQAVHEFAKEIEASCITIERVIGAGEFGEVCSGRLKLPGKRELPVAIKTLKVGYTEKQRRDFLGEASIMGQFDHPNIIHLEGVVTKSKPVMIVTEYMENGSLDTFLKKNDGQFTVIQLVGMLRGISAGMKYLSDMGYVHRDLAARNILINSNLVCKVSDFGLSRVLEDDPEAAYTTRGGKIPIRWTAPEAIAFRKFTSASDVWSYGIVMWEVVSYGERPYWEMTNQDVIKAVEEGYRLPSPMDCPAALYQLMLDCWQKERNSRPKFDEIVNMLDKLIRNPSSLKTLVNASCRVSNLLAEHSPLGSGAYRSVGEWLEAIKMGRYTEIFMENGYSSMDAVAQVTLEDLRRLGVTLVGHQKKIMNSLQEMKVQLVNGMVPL
Sequence of UniProt Q9H3Y6 (whole entry, looked up): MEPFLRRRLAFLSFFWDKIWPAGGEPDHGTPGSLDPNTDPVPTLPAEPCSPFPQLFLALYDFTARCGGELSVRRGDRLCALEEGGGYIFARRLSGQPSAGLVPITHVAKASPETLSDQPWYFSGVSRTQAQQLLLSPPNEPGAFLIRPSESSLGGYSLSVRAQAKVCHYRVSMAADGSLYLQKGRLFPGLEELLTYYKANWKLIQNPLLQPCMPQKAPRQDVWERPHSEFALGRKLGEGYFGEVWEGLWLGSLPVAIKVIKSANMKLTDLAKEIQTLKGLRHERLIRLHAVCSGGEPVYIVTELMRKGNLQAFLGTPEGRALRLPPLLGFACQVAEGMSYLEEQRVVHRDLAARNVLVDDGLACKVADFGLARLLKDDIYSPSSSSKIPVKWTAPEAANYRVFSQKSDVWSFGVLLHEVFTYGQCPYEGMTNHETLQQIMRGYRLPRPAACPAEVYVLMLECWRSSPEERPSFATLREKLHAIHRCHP
Sequence of UniProt Q96BR1 (whole entry, looked up): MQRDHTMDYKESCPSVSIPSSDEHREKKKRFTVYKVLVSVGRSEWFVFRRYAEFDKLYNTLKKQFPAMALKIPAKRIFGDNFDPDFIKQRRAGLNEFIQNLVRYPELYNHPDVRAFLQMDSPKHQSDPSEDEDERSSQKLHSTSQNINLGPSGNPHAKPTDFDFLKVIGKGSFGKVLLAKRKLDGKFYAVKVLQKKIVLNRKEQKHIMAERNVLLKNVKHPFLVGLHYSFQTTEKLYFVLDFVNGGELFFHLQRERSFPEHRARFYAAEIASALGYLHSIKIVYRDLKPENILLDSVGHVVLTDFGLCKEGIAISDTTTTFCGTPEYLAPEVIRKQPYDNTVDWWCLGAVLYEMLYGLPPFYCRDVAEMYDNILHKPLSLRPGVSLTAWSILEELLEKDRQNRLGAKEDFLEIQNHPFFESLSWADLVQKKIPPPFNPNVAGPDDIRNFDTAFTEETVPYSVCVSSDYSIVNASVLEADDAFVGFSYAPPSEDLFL

Set 1
Structure (SMILES): CN1CCC[C@H]1COc1nc2c(c(N3CCN(S(C)(=O)=O)[C@@H](CC#N)C3)n1)CCN(c1cccc3cccc(Cl)c13)C2
Target: GTPase KRas (KRAS, Homo sapiens, UniProt P01116, G12D)
Observed: binding
Technique: NanoBRET
Cell line: HEK293 (live)
Direction: lower = stronger binding
concentration	target engagement
0.5686 µM	80.5% and 69.8% and 84.7%
1.523 µM	43.6% and 39.2% and 30.6%
0.09151 µM	90.2% and 87.6% and 78.6%
1.046 µM	75.4% and 54.8% and 70.6%

Set 2
SMILES: COc1ccc(-c2c(Nc3ccccn3)[nH]c3c(C4=CCCCC4)c(-c4ccccc4)nn3c2=O)cc1
Species: human patients
Medium: plasma
measured	dose	time	mean concentration
S-adenosylmethionine	200 mg once daily	4 h	14.6 ng/mL
S-adenosylmethionine	100 mg once daily	4 h	19.9 ng/mL
methionine	200 mg once daily	8 h	119000 ng/mL
methionine	150 mg once daily	0 h	136000 ng/mL
methionine	200 mg once daily	2 h	121000 ng/mL
S-adenosylmethionine	150 mg once daily	0 h	18.4 ng/mL
methionine	100 mg once daily	8 h	92000 ng/mL
methionine	150 mg once daily	4 h	129000 ng/mL
S-adenosylmethionine	150 mg once daily	8 h	20.2 ng/mL
methionine	100 mg once daily	6 h	93700 ng/mL
methionine	400 mg once daily	2 h	82400 ng/mL

Set 3
Target: Mitogen-activated protein kinase 10 (MAPK10, Homo sapiens, UniProt P53779)
Sequence of UniProt P53779 (whole entry, looked up): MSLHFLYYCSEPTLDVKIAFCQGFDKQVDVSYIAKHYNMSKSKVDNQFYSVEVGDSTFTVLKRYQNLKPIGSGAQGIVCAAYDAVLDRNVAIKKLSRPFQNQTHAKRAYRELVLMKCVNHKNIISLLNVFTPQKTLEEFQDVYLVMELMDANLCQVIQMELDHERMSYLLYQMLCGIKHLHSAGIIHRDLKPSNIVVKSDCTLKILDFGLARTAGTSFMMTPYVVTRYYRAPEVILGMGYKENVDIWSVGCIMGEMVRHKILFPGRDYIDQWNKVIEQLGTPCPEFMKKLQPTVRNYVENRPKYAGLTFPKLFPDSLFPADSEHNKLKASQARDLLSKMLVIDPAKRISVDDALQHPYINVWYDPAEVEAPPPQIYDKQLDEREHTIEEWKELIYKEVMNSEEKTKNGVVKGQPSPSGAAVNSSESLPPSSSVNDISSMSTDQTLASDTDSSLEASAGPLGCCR
Observed: enzyme activity
Action: inhibitor
Concentration: 0.5 µM
Baseline: control
SMILES	remaining activity [%]
N#C/C(=C\c1ccc(O)c(O)c1)C(=O)NCc1ccccc1	98
Cc1cc2ncc(-c3ccccc3)nc2cc1C	103
CN([C@@H](Cc1ccc(OS(=O)(=O)c2cccc3cnccc23)cc1)C(=O)N1CCN(c2ccccc2)CC1)S(=O)(=O)c1cccc2cnccc12	88.2
O=C(Nc1cccc(Nc2nccc(Nc3cccc(C(F)(F)F)c3)n2)c1)C1CC1	99
CCN(CC)C(=O)c1ccc(Nc2nc(OCC3CCCCC3)c3[nH]cnc3n2)cc1	108
CCN(CC)CCNC(=O)c1c(C)[nH]c(/C=C2\C(=O)Nc3ccc(F)cc32)c1C	99.5
Cc1cn(-c2cc(NC(=O)c3ccc(C)c(Nc4nccc(-c5cccnc5)n4)c3)cc(C(F)(F)F)c2)cn1	117
c1ccc(-c2cnc(Nc3ccc(OCCN4CCCC4)cc3)s2)cc1	92.9
CCN(CC)CCNC(=O)c1c(C)[nH]c(/C=C2\C(=O)Nc3ccc(Cl)cc32)c1C	104
N#Cc1c(NC(=O)c2cccc3ccccc23)sc2c1CCCC2	112
COc1cc2ncnc(Nc3cccc(Cl)c3)c2cc1OC	89
Cn1nc2c3c(cccc31)C(=O)c1ccccc1-2	97.3
C[C@@H]1CCN(C(=O)CC#N)C[C@@H]1N(C)c1ncnc2[nH]ccc12	100
CN(C)C[C@H]1CCn2c(c(C3=C(c4cn(C)c5ccccc45)C(=O)NC3=O)c3ccccc32)C1	101
COc1cc2ncnc(Nc3ccc(O)c(Br)c3)c2cc1OC	89
O=c1cc(-c2cccc3c2Sc2ccccc2S3)oc(N2CCOCC2)c1	93.6
O=C(NC(NC(=S)Nc1ccc(F)c([N+](=O)[O-])c1)C(Cl)(Cl)Cl)C(c1ccccc1)c1ccccc1 (stereo not shown)	96.2
Nc1cccc(-c2cc3c(Oc4cccc(O)c4)ncnc3[nH]2)c1	89.4
Ic1cccc(CSc2nnc(-c3ccncc3)o2)c1	95.7
O=C1C(Cl)=C(N2C(=O)CCC2=O)C(=O)c2ccccc21	93.6
O=C1c2ccccc2-c2n[nH]c3cccc1c23	115
COc1cc2c(cc1OC)-c1[nH]nc(Nc3cccc(F)c3)c1C2	102
Cc1nc2cc3nc(-c4cccs4)cnc3cc2n1C	96.3

Set 4
SMILES: CC(=O)C1=C(C)N(c2cccc(C(F)(F)F)c2)C(=O)N[C@@H]1c1ccc(C#N)nc1
Observed: cell-free assay
Technique: competition with immobilised ligand
Concentration: 1 µM
target	remaining binding [%]
PRKG1 (Homo sapiens, UniProt Q13976)	45.5
TNIK (Homo sapiens, UniProt Q9UKE5)	90.8
EPHA5 (Homo sapiens, UniProt P54756)	98.2
MAP2K7 (Homo sapiens, UniProt O14733)	100
EGFR (Homo sapiens, UniProt P00533, del752-759)	92.9
Tyrosine-protein kinase ABL1, non-phosphorylated (ABL1, Homo sapiens, UniProt P00519, H396P)	87.1
EGFR (Homo sapiens, UniProt P00533, L861Q)	100
MYLK (Homo sapiens, UniProt Q15746)	83.8
KIT (Homo sapiens, UniProt P10721)	96.9
FGFR2 (Homo sapiens, UniProt P21802)	100
DCLK3 (Homo sapiens, UniProt Q9C098)	53.9
SGK3 (Homo sapiens, UniProt Q96BR1)	100
KIT (Homo sapiens, UniProt P10721, T670I/V559D)	96.7
Tyrosine-protein kinase ABL1, phosphorylated (ABL1, Homo sapiens, UniProt P00519, M351T)	100
CLK1 (Homo sapiens, UniProt P49759)	100
KIT (Homo sapiens, UniProt P10721, D816V)	100
SRMS (Homo sapiens, UniProt Q9H3Y6)	97.9

A few entries again (set 4):
target	remaining binding [%]
TNIK (Homo sapiens, UniProt Q9UKE5)	90.8
EPHA5 (Homo sapiens, UniProt P54756)	98.2
MAP2K7 (Homo sapiens, UniProt O14733)	100
EGFR (Homo sapiens, UniProt P00533, del752-759)	92.9
Tyrosine-protein kinase ABL1, non-phosphorylated (ABL1, Homo sapiens, UniProt P00519, H396P)	87.1
EGFR (Homo sapiens, UniProt P00533, L861Q)	100
